Results collected from several papers.
Every numbered part comes from another study and shows a few of its results, in no order.

Study 1 — technique: RNA Bind-n-Seq; form: RNA; medium: in vitro; tested at: 365 nM; relative to: no-protein control; reading: higher = stronger binding; quantity: RBNS enrichment (R)
Target: RNA binding protein fox-1 homolog 2, RRM domain, GST-SBP tag (RBFOX2, Homo sapiens, UniProt O43251-10, residues 100-194)
Notes: natural RNA segment, single round, ends assumed
Shared flanks, not repeated: GGGAGUUCUACAGUCCGACGAUC … UGGAAUUCUCGGGUGCCAA
UGUGUCUGUCUGUUCGUCUGUCCACCUAUCUUUGUGGAAGUCACUGUGAUGGUAGUGACUUUAUGAGUUGUGAAUGGUCCUUGGCAGUCUGCCUGCUUUCUCAGAGUCUG: 1.78
CCUCUCAAAUAGCUGGGCUUACAGGCAUGAGCCACCACACCUGGCCAGGAUUUGGUUGUUUAAAUAUAAAUCUGAUCACCCCCCUGCUUAGAACCCUUCUGCUUUCUAUU: 0.403
CGAGGCUGAGUUGCUGUAGCGUCUUGAUUCUCUCCCUGGGUCUGCGUUCCCUCCCCUGGGCCUGACUGAGCCUGCUCAUUGUUUUUCCCUUUAUUACACAGGACAGCCAG: 1.82
UUCGUUUAGGAUUAGUUGAGUUCCAGCUGGGUUUUGGGAGAAAGGAGAUGCUACCAAGUCUUGGAUGUUAGGGCGAGACCCUGCAAGUUGAGUAUUAGAGAGCUUGUCUU: 0.564
AAAUUAGGGAAGUGGAGGAAAUUAUUUGGAAUGUGAUCUAAGUUUUUGUUUUUUUUUAAUGUGUCAACUUGGGCUCAGGCUGUAGUUGUGUUGCGUGCCUGCUUAGCAUA: 3.79
AUGCCAGCACUAGCCAGCUGGUGGGUAUUUGGAGGAAUCCUGCAUGAGGAUUGCCCAAUAAGGGGCAGGUACACAUACCUGGCAAAGUGAUGAUGAUGUGAAUUGUUUCC: 3.28
CUUAACUCAGUAAAGAUGGAAGUGGUAAAGAAACCAAGUAGACAGUAGGGGCUCUUGAGAGUAUUGAAAGGCAGUGCUGCCUUUAUGCAGGAAGGUAUAAACCGGUUAUG: 0.899
CUACAACUGAAGCCAGAAAAGUGAUAUUGUUUAAAUUUCAAGGACAUUAAUAUUAUUAAUAUAAUAAUGGUGAUGGUGAUGAUGAAAACUGAGGACUUUAAAAGAGAUUU: 0.628

Study 2 — technique: protein-binding microarray; form: double-stranded DNA, one strand shown; medium: in vitro; tested at: not given; reading: higher = stronger binding; quantity: E-score
Target: Hepatocyte nuclear factor 3-beta, forkhead domain (FOXA2, Homo sapiens, UniProt Q9Y261, residues 142-269)
Notes: k-mer, scored over probes, only values ≥0.25
Construct (chain): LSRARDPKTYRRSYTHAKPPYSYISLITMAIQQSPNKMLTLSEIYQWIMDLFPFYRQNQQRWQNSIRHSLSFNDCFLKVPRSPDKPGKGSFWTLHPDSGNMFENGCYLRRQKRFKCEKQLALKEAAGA
AGTGTAAG: 0.258
GTAGTATA: 0.259
AGGAATAT: 0.266
ACTGATAA: 0.291
AATTTGTA: 0.333
ATACTTTG: 0.254
ACAGTAAT: 0.317
ACATGTAG: 0.367
CAAATCAA: 0.34
TAACATAA: 0.357
ATATTACG: 0.278
TATGTGCA: 0.271
GTGTTATA: 0.324
AAGTGTTG: 0.255
ACTATAAA: 0.334
TGTTATAA: 0.282

Study 3 — technique: aptamer microarray, sandwich; form: DNA with 2'F-ANA; medium: in vitro; tested at: 200 nM; with: Cy3 exosite-II aptamer, 400 nM; reading: higher = stronger binding; quantity: mean fluorescence intensity; oligonucleotide: GGTTGGTGTGGTTGG
Target: Prothrombin, mature alpha-thrombin (F2, Homo sapiens, UniProt P00734)
Notes: whole 15-mer aptamer, many near background
2'F-ANA at 1 3 4 12 13 14: 79 a.u.
2'F-ANA at 1 8 12 13: 400 a.u.
2'F-ANA at 2 4 5 6 7 8 9 12 13 14 15: 92.4 a.u.
2'F-ANA at 1 3 5 6 7 8 9 10 12 13 14 15: 48.9 a.u.
2'F-ANA at 1 2 3 7 8 10 13 15: 65 a.u.
2'F-ANA at 1 3 5 12: 146 a.u.
2'F-ANA at 1 2 7 12 14: 80.6 a.u.
2'F-ANA at 2 4 6 7 9 10 11 12 13: 80.4 a.u.
2'F-ANA at 6 7 9 10 11 13: 138 a.u.
2'F-ANA at 5 6 7 11 12 13 14 15: 53 a.u.
2'F-ANA at 1 2 6 9 12 13: 225 a.u.
2'F-ANA at 1 4 8 9 15: 161 a.u.
2'F-ANA at 1 7 9 10 11 15: 57.9 a.u.
2'F-ANA at 2 4 6 11 13 15: 146 a.u.
2'F-ANA at 2 4 9 10: 104 a.u.
2'F-ANA at 2 4 6 8 9 10 11: 69.8 a.u.
2'F-ANA at 2 4 7 9 10 11 15: 84.5 a.u.
2'F-ANA at 1 10 11 14 15: 49.1 a.u.
2'F-ANA at 3 5 6 8 9 11 12 13: 644 a.u.
2'F-ANA at 1 2 3 5 6 7 8 11 12: 124 a.u.
2'F-ANA at 1 3 4 6 7 10 11 12: 73.5 a.u.
2'F-ANA at 3 6 8 10 11 15: 452 a.u.
2'F-ANA at 1 2 5 10 11 12: 46.8 a.u.
2'F-ANA at 1 2 3 4 5 10 11 12 13 15: 64.4 a.u.
2'F-ANA at 1 2 3 6 7 8 13 15: 185 a.u.

Study 4 — technique: protein binding microarray; form: double-stranded DNA, one strand shown; medium: in vitro; tested at: not given; relative to: not given; reading: higher = stronger binding; quantity: E-score
Target: Histone acetyltransferase KAT6A, winged helix 1, GST fusion (KAT6A, Homo sapiens, UniProt Q92794, residues 1-85)
Notes: 8-mer, flanks averaged, mean of 2 arrays, mostly near background
Residues (chain): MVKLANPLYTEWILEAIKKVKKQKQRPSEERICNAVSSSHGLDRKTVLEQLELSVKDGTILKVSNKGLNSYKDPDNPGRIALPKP
AACTATCA: -0.16
ACTGGCTA: -0.199
CCCTAACG: 0.0677
CTGACGAC: -0.145
CGCAAAGA: 0.077
ACTAAATC: -0.0232
GAGCTTTA: 0.0288
GAAAGCTC: -0.143
GCCTGGAC: -0.0623
ACGACACG: -0.004
AACCTAGC: -0.0986
CGGTCACC: 0.0966
CTGTCAAG: -0.208
GTAACAAA: 0.0158
CACACTAA: -0.075
CATCTACA: -0.265
CCGGAGCA: 0.262
ACTTGTAT: -0.177
CATTTCAA: -0.178

Study 5 — technique: protein-binding microarray; form: double-stranded DNA, one strand shown; medium: in vitro; tested at: 250 nM; notes: 60-bp whole probe; with: salmon DNA 0.4 mg/ml; relative to: random background probes; reading: higher = stronger binding; quantity: log fluorescence; shared flanks, not repeated: GCCTAGCAC … GTCTTGATTCGCTTGACGCTGCTG
Target: Interferon regulatory factor 5, full length, phosphomimetic (IRF5, Homo sapiens, UniProt Q13568-2, residues 1-514, K96S/S451D/S453D/S456D/S462D)
TTAGGTTGCGACTTTCGGTTAGTGCTA: 9.13 z-score
ATAGATTTCAGACTGGATTAGTGCTAG: 0.357 z-score
TTAGGTATCCGGACTGGGTTAGTGCTA: -0.16 z-score
TCAGTTCTTATCCTTCCCACTGTGCTA: 0.378 z-score
AAATTCTGATATAATTCAAAGTGCTAG: 0.795 z-score
TCAGTTGTACTTTCTATCACTGTGCTA: 3.85 z-score
TTAGGAGTGGGGTATCGGTTAGTGCTA: 2.33 z-score
TCAGGTCTGGATGTGCCACTGTGCTAG: -0.299 z-score
TCAAGTTTTCATTTTCTACTGTGCTAG: 2.64 z-score
CATCATTTTTCCCTCTGGAAGTGCTAG: 1.08 z-score
CACGAACTGAGTTTCGAGACGTGCTAG: 4.69 z-score
TTAGGACTGGGGAATGGGTTAGTGCTA: -0.403 z-score
CTAGAACTGAGTCTCGATTAGTGCTAG: 0.487 z-score
TCACAAGTCTTGTTTTACACTGTGCTA: 0.591 z-score
TCATGTATTTGTCCCTAACTGTGCTAG: 0.345 z-score
TTAGATCTGAGTATCGATTAGTGCTAG: 6.59 z-score
TTAAGTATCGGTTTCGGTTAGTGCTAG: 11.5 z-score
GAACTTCTGCATTACAGCTAGTGCTAG: 0.0264 z-score

Some of these lines once more (study 2):
AATTTGTA: 0.333
ACTGATAA: 0.291
AGTGTAAG: 0.258
GTAGTATA: 0.259
AAGTGTTG: 0.255
